Published values gathered from unrelated publications.
AKT2: RAC-beta serine/threonine-protein kinase (AKT2, Homo sapiens, UniProt P31751)
Sequence of UniProt P31751 (whole entry, unmodified, looked up): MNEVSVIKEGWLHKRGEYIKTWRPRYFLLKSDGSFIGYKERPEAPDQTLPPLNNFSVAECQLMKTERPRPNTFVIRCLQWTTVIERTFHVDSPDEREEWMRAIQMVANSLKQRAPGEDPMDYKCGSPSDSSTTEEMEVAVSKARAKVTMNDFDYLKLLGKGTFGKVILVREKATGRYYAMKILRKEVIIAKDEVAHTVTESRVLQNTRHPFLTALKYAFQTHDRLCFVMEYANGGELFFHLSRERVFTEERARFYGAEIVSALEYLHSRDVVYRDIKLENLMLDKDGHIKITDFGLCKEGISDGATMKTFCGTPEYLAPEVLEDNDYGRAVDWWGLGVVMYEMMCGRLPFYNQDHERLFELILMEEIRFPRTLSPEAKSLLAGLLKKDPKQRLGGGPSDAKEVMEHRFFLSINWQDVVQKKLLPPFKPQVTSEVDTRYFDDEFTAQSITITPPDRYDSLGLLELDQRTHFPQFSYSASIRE

The inhibition of `NC(=O)[C@@H](O)C[C@H]1CCc2sc3ncnc(O[C@H]4CC[C@H](N5CCOCC5)CC4)c3c21` is reported as 7% (AKT2; enzyme activity, inhibitor; 10 µM).
`Nc1ncc2c(n1)-c1c([nH]c3ccc(C4=CCOCC4)cc13)CCC2` has a remaining binding of 100% (AKT2; binding, competition with immobilised ligand; 1 µM).
`O=C(NCc1cn(-c2ccccc2)nc1-c1ccccc1)c1cc([N+](=O)[O-])cc([N+](=O)[O-])c1` gave a relative translation of 92.9% (Trypanosoma cruzi; reporter mRNA translation, inhibitor, item: capped polyadenylated Renilla luciferase mRNA; cell-free extract; concentration not given; baseline: control RNA).
For `C=CC(=O)N1CCCC(n2c(=O)c3ncccc3n(Cc3ccc(Oc4ccccc4)cc3)c2=O)C1` (stereo not shown), the remaining binding was 93% (AKT2; cell-free assay, competition with immobilised ligand; 1 µM).
`COc1cc(Nc2nc(C)cc(-c3cnn4nc(OC)ccc34)n2)cc(C(F)(F)F)c1` gave a remaining activity of 100% (AKT2; inhibitor; 1 µM; baseline: control).
`CNC1C[S+]2CC[S+]3CC[S+](C1)[Ru-4]321([N]=C=S)[n]2c3ccc(OC)cc3c3c4c(c5cc(F)c[n+]1c5c32)C(=O)NC4=O` (stereo not shown) has a remaining binding of 100% (AKT2; KinomeScan; 0.1 µM; baseline: untreated).
With `COc1ccc(NC(=O)Nc2ccc3c(c2)C(=O)N(C(C)CO)CC(C)C(CN(C)Cc2ccc4c(c2)OCO4)O3)cc1` (stereo not shown) the remaining binding was 80% (AKT2; binding, competition with immobilised ligand; 10 µM).
For `CNC(=O)C[C@H](Cc1ccc(C#N)cc1)NC(=O)c1cc(-c2ccc(CN[C@H](C)c3ccc(C)cc3)o2)ccc1Cl`, “activity vs control” read 95% (AKT2; enzyme activity, inhibitor; 1 µM).
With `CCN1CCN(Cc2ccc(C(=O)Nc3ccc(C)c(NCc4cnc5[nH]ccc5c4OC)c3)cc2C(F)(F)F)CC1` the remaining binding was 93% (AKT2; binding, competition with immobilised ligand; 1 µM).
For `COc1c(OCCCN2CCOCC2)ccc2c1N=C(NC(=O)c1cnc(N)nc1)N1CCN=C21`, the remaining activity was 105% (AKT2; kinase activity, inhibitor; 1 µM; baseline: untreated control).
For `CNS(=O)(=O)Nc1nccc(Cc2c(C)c3ccc(Oc4ncccc4F)cc3oc2=O)c1F`, the remaining binding was 100% (AKT2; binding, competition with immobilised ligand; 10 µM).
`Cc1cccc(O[C@H]2CCC[C@@H](C(C)CNCc3ccncc3)C2)c1` (relative stereo) has an inhibition of 2% (AKT2; enzyme activity, inhibitor; 1 µM).
With `C=CC(=O)Nc1cccc(-c2cnc3[nH]cc(C(=O)NC(C)(C)C)c3n2)c1` the inhibition was 3% (AKT2; kinase activity; 0.1 µM).
The remaining activity of `O=c1c(-c2ccc(Cl)c(CN3CCOCC3)c2)coc2cc(O)ccc12` is reported as 95% (AKT2; enzyme activity, inhibitor; 1 µM).
With `Nc1nc2nn[nH]c2c(=O)[nH]1` the relative translation was 93.3% (Trypanosoma cruzi; reporter mRNA translation, inhibitor, item: capped polyadenylated Renilla luciferase mRNA; cell-free extract; concentration not given; baseline: control RNA).
For `Cc1ccc(C)c(-c2ccc3nc(NC(=O)C4CCCCC4)nn3c2)c1`, “activity vs control” read 59% (AKT2; enzyme activity, inhibitor; 10 µM).

Excerpt of the above:
The remaining activity of `O=c1c(-c2ccc(Cl)c(CN3CCOCC3)c2)coc2cc(O)ccc12` is reported as 95% (AKT2; enzyme activity, inhibitor; 1 µM).
With `Nc1nc2nn[nH]c2c(=O)[nH]1` the relative translation was 93.3% (Trypanosoma cruzi; reporter mRNA translation, inhibitor, item: capped polyadenylated Renilla luciferase mRNA; cell-free extract; concentration not given; baseline: control RNA).
